# Assay results collected from several papers.
# Lines come from different studies, so protocols differ.
Structure (SMILES),cell line,read-out,technique,time,CC50 [µM]
COc1ccc(Cn2c3cc(=O)n(Cc4cccc(Cl)n4)c(C)c3c(=O)n2-c2ccccn2)cc1,HEp-2,,,48 (unit not given),> 50
O=C(Oc1cc(OC(=O)c2cc(O)c(O)c(O)c2)c2ccccc2c1)c1cc(O)c(O)c(O)c1,BEAS-2B,cell growth or viability,MTT,48 h,72.8
COc1ccc(Cn2c3cc(=O)n(Cc4cccc(C(F)(F)F)n4)c(C)c3c(=O)n2-c2ccccn2)cc1,HEp-2,,,48 (unit not given),> 5
O=C1C(NCCc2ccc(O)c(Br)c2)=CC2=NCCc3c[nH]c1c32,HCT-116,cell growth or viability,MTT,72 h,4
Cc1cccnc1-c1csc(C(=O)Nc2cc(Cl)cc(NS(C)(=O)=O)c2)c1,HLF,cell growth or viability,ATP luminescence,10 days,> 10
O=C1C(NCCc2ccc(O)cc2)=CC2=NCCc3c(Br)[nH]c1c32,HCT-116,cell growth or viability,MTT,72 h,5
CC1(C)C(NC(=O)C(=NOC2(C(=O)O)CC2)c2csc(N)n2)C(=O)N1OS(=O)(=O)O (stereo not drawn),U-2940,cell growth or viability,,,> 100
COc1c(F)c(F)c(Cn2c3cc(=O)n(Cc4cccc(C(F)(F)F)n4)c(C)c3c(=O)n2-c2ncc(F)cc2F)c(F)c1F,HEp-2,,,48 (unit not given),> 10
Cc1ccc(S(=O)(=O)n2cc3c4c2C(=O)C(NCCc2ccc(O)cc2)=CC4=NCC3)cc1,HCT-116,cell growth or viability,MTT,72 h,2
COc1ccc(Cn2c3cc(=O)n(Cc4cccc(Cl)n4)c(C)c3c(=O)n2-c2ncc(F)cc2F)cc1,HEp-2,,,48 (unit not given),> 45
COc1c(Br)cc(CCNC2=CC3=NCCc4c[nH]c(c43)C2=O)cc1Br,HCT-116,cell growth or viability,MTT,72 h,10
O=C(O)c1ccc(Nc2c(-c3ccccc3)nc3cc(-c4ccccc4)ccn23)cc1,HCT-116,cell growth or viability,,72 h,50
